Assay results of several laboratories.
Each line is one published result; not all experiments were run side by side.

| Structure (SMILES) | organism | test | system | setting | MIC |
| --- | --- | --- | --- | --- | --- |
| CCCCCCC#Cc1cncc(-c2nnc(SCc3ccc(Cl)cc3)n2C)c1 | ESKAPE panel pathogens |  |  |  | > 64 mg/L |
| CC1(C)[C@H](NC(=O)/C(=N\OCCN)c2nsc(N)n2)C(=O)N1OS(=O)(=O)O | Proteus mirabilis | agar dilution | ATCC 49565, susceptible |  | 1 mg/L |
| CC[C@H]1OC(=O)[C@H](C)[C@@H](OC(=O)Cc2ccc([N+](=O)[O-])cc2)[C@H](C)[C@@H](O[C@@H]2O[C@H](C)C[C@H](N(C)C)[C@H]2O)[C@](C)(OC)C[C@@H](C)C(=O)[C@H](C)[C@@H](O)[C@]1(C)O | Bacillus subtilis | microbial growth | DSM402 |  | 0.1 mg/L |
| CC1(C)S[C@@H]2[C@H](NC(=O)[C@H](NC(=O)C3=C(O)C(c4ccccc4F)NC3=O)c3ccccc3)C(=O)N2[C@H]1C(=O)O (stereo partly shown) | Escherichia coli | broth microdilution | ATCC 25922 wild type | together with: clavulanic acid 6 µg/mL | 12.5 mg/L |
| COc1c(NC(=O)c2ccc(NC(=O)[C@H](Cc3c[nH]nn3)NC(=O)c3ccc(NC(=O)/C(C)=C/c4ccc(O)cc4)cc3)cc2)ccc(C(=O)Nc2ccc(C(=O)O)c(O)c2)c1O | Bacillus subtilis | broth microdilution | DSM 10 |  | 0.5 mg/L |
| CC1C=CC=CC(C)C2C=CC3CC(C)(O)C(Cl)C(C)C3C2C(=O)C(Cl)(Cl)C(=O)C(C)C(=O)O1 (stereo not shown) | Staphylococcus aureus |  | clinical MSSA isolate |  | 0.1 mg/L |
| CC1(C)C(NC(=O)C(=NOC2(C(=O)O)CCC2)c2csc(N)n2)C(=O)N1OS(=O)(=O)O (stereo not shown) | Proteus mirabilis | agar dilution | ATCC 49565, susceptible |  | ≤ 0.03 mg/L |
| C=C(NC(=O)c1csc(-c2ccc(NC(=O)CCCCCBr)cc2)n1)C(=O)NC(=C)C(=O)OC | Enterococcus hirae | microbial growth | ATCC10541 |  | > 20 µM |
| CC1(C)[C@H](NC(=O)/C(=N\OCC(=O)N2CCC[C@@H]2C(=O)O)c2nsc(N)n2)C(=O)N1OS(=O)(=O)O | Proteus mirabilis | agar dilution | ATCC 49565, susceptible |  | 0.25 mg/L |
| CC[C@H]1OC(=O)[C@H](C)[C@@H](OC(=O)Cc2ccc(N)cc2)[C@H](C)[C@@H](O[C@@H]2O[C@H](C)C[C@H](N(C)C)[C@H]2O)[C@](C)(OC)C[C@@H](C)C(=O)[C@H](C)[C@@H](O)[C@]1(C)O | Bacillus subtilis | microbial growth | DSM402 |  | 2 mg/L |
| C=C(NC(=O)c1csc(-c2nc3c(cc2O)-c2nc(cs2)C(=O)NC(C(C)O)C(=O)NC(=C(C)OC)c2nc(cs2)C(=O)NC2c4nc(cs4)C(=O)NC(COC(=O)c4c5c6c(cccc6n4O)COC(=O)C(OC4CC(C)(O)C(N(C)C)C(C)O4)C2OC5)c2nc-3cs2)n1)C(N)=O (stereo not shown) | Streptococcus pneumoniae |  | ATCC 49619 |  | 0.0078 mg/L |
| COc1nc(C(=O)Nc2ccc(C(=O)O)nc2OC)ccc1NC(=O)c1ccc(NC(=O)[C@H](Cc2c[nH]nn2)NC(=O)c2ccc(NC(=O)/C(C)=C/c3ccc(O)cc3)cc2)cc1 | Bacillus subtilis | broth microdilution | DSM 10 |  | 4 mg/L |
| CC(C)(O/N=C(\C(=O)N[C@@H]1C(=O)N(OS(=O)(=O)O)C1(C)C)c1nsc(N)n1)C(=O)O | Proteus mirabilis | agar dilution | ATCC 49565, susceptible |  | 16 mg/L |
| Cc1c(CN(C)C(=O)/C=C/c2cnc3c(c2)CC(N)C(=O)N3)oc2ccccc12 (stereo not shown) | Klebsiella pneumoniae | broth microdilution | S20595 |  | 16 mg/L |
| COc1cccc(OC)c1C(=O)N[C@@H]1C(=O)N2[C@@H]1SC(C)(C)[C@@H]2C(=O)O | Gram-negative bacteria |  |  | seven strains | 256 µM |
| CC1(C)[C@H](NC(=O)/C(=N\OCc2c(Cl)cccc2Cl)c2csc(N)n2)C(=O)N1OS(=O)(=O)O | Proteus mirabilis | agar dilution | ATCC 49565, susceptible |  | 0.25 mg/L |
| C[C@@H]1C(=O)O[C@@H](C)/C=C/C=C\[C@@H](C)[C@@H]2C=C[C@@H]3C[C@@]4(C)O[C@H]4[C@@H](C)[C@H]3[C@@H]2C(=O)C(Cl)(Cl)C1=O | Staphylococcus aureus |  | MRSA clinical isolate | resistant: OXA,CLI,DOX,ERY,TET,TOB | 0.1 mg/L |
| CC[C@H]1OC(=O)[C@H](C)[C@@H](OC(=O)Cc2cccc(Cl)c2)[C@H](C)[C@@H](O[C@@H]2O[C@H](C)C[C@H](N(C)C)[C@H]2O)[C@](C)(OC)C[C@@H](C)C(=O)[C@H](C)[C@@H](O)[C@]1(C)O | Bacillus subtilis | microbial growth | DSM402 |  | 2 mg/L |
| O=CCNCCOn1c(=O)n(OCCNCCO)c(=O)n(OCCNCCOn2c(=O)n(OCCNCCO)c(=O)n(OCCNCCO)c2=O)c1=O | Proteus mirabilis | microbial growth, broth dilution |  |  | 2 mg/L |
| C#CCNC(=O)C(C)(C)O/N=C(\C(=O)N[C@@H]1C(=O)N(S(=O)(=O)O)[C@H]1C)c1csc(N)n1 | Proteus mirabilis | agar dilution | ATCC 49565 susceptible |  | 1 mg/L |
| CNC(C)C1CCC(N)C(OC2C(N)CC(N)C(OC3OCC(C)(O)C(NC)C3O)C2O)O1 (stereo not shown) | Gram-negative bacteria |  |  | seven strains | 0.91 µM |
| Oc1cc(Cn2cc(-c3ccccc3)nn2)ccc1Oc1ccc(Cl)cc1Cl | Mycobacterium tuberculosis |  | H37Rv |  | > 100 mg/L |
| CC[C@H]1OC(=O)[C@H](C)[C@@H](OC(=O)Cc2ccccc2[N+](=O)[O-])[C@H](C)[C@@H](O[C@@H]2O[C@H](C)C[C@H](N(C)C)[C@H]2O)[C@](C)(OC)C[C@@H](C)C(=O)[C@H](C)[C@@H](O)[C@]1(C)O | Bacillus subtilis | microbial growth | DSM402 |  | 1 mg/L |
| C=C[C@]1(C)C[C@@H](OC(=O)CSc2ccc(NC(=O)c3ccco3)cc2)[C@]2(C)[C@H](C)CC[C@]3(CCC(=O)[C@H]32)[C@@H](C)[C@@H]1O | Mycoplasma gallisepticum |  | chicken lung isolates | 50 mg/kg to chickens | 0.00195 mg/L |
| CC1(C)[C@H](NC(=O)/C(=N\OCc2cc(=O)c(O)cn2O)c2csc(N)n2)C(=O)N1OS(=O)(=O)O | Proteus mirabilis | agar dilution | ATCC 49565 susceptible |  | ≤ 0.03 mg/L |
| CC[C@H]1OC(=O)[C@H](C)[C@@H](OC(=O)Cc2cccc3ccccc23)[C@H](C)[C@@H](O[C@@H]2O[C@H](C)C[C@H](N(C)C)[C@H]2O)[C@](C)(OC)C[C@@H](C)C(=O)[C@H](C)[C@@H](O)[C@]1(C)O | Bacillus subtilis | microbial growth | DSM402 |  | 2 mg/L |
| C#CCO/N=C(\C(=O)N[C@@H]1C(=O)N(OS(=O)(=O)O)C1(C)C)c1csc(N)n1 | Proteus mirabilis | agar dilution | ATCC 49565, susceptible |  | 0.06 mg/L |
| C/C(=C\c1ccc(O)cc1)C(=O)Nc1ccc(C(=O)N[C@@H](Cc2c[nH]nn2)C(=O)Nc2ccc(C(=O)Nc3ccc(C(=O)Nc4ccc(C(=O)O)c(O)c4)c(O)c3)cc2)cc1 | Bacillus subtilis | broth microdilution | DSM 10 |  | 1 mg/L |
